Published values pooled from the literature.
Several values in a cell are separate wells, animals, samples, runs or records. Numbers after ± are the reported error.
B1: human anillin; sequence looked up; chain MDPFTEKLLERTRARRENLQRKMAERPTAAPRSMTHAKRARQPLSEASNQQPLSGGEEKSCTKPSPSKKRCSDNTEVEVSNLENKQPVESTSAKSCSPSPVSPQVQPQAADTISDSVAVPASLLGMRRGLNSRLEATAASSVKTRMQKLAEQRRRWDNDDMTDDIPESSLFSPMPSEEKAASPPRPLLSNASATPVGRRGRLANLAATICSWEDDVNHSFAKQNSVQEQPGTACLSKFSSASGASARINSSSVKQEATFCSQRDGDASLNKALSSSADDASLVNASISSSVKATSPVKSTTSITDAKSCEGQNPELLPKTPISPLKTGVSKPIVKSTLSQTVPSKGELSREICLQSQSKDKSTTPGGTGIKPFLERFGERCQEHSKESPARSTPHRTPIITPNTKAIQERLFKQDTSSSTTHLAQQLKQERQKELACLRGRFDKGNIWSAEKGGNSKSKQLETKQETHCQSTPLKKHQGVSKTQSLPVTEKVTENQIPAKNSSTEPKGFTECEMTKSSPLKITLFLEEDKSLKVTSDPKVEQKIEVIREIEMSVDDDDINSSKVINDLFSDVLEEGELDMEKSQEEMDQALAESSEEQEDALNISSMSLLAPLAQTVGVVSPESLVSTPRLELKDTSRSDESPKPGKFQRTRVPRAESGDSLGSEDRDLLYSIDAYRSQRFKETERPSIKQVIVRKEDVTSKLDEKNNAFPCQVNIKQKMQELNNEINMQQTVIYQASQALNCCVDEEHGKGSLEEAEAERLLLIATGKRTLLIDELNKLKNEGPQRKNKASPQSEFMPSKGSVTLSEIRLPLKADFVCSTVQKPDAANYYYLIILKAGAENMVATPLASTSNSLNGDALTFTTTFTLQDVSNDFEINIEVYSLVQKKDPSGLDKKKKTSKSKAITPKRLLTSITTKSNIHSSVMASPGGLSAVRTSNFALVGSYTLSLSSVGNTKFVLDKVPFLSSLEGHIYLKIKCQVNSSVEERGFLTIFEDVSGFGAWHRRWCVLSGNCISYWTYPDDEKRKNPIGRINLANCTSRQIEPANREFCARRNTFELITVRPQREDDRETLVSQCRDTLCVTKNWLSADTKEERDLWMQKLNQVLVDIRLWQPDACYKPIGKP
B2: human ADP/ATP translocase 1; sequence looked up; chain GDHAWSFLKDFLAGGVAAAVSKTAVAPIERVKLLLQVQHASKQISAEKQYKGIIDCVVRIPKEQGFLSFWRGNLANVIRYFPTQALNFAFKDKYKQLFLGGVDRHKQFWRYFAGNLASGGAAGATSLCFVYPLDFARTRLAADVGKGAAQREFHGLGDCIIKIFKSDGLRGLYQGFNVSVQGIIIYRAAYFGVYDTAKGMLPDPKNVHIFVSWMIAQSVTAVAGLVSYPFDTVRRRMMMQSGRKGADIMYTGTVDCWRKIAKDEGAKAFFKGAWSNVLRGMGGAFVLVLYDEIKKYV
B3: human FKBP4; sequence looked up; chain MTAEEMKATESGAQSAPLPMEGVDISPKQDEGVLKVIKREGTGTEMPMIGDRVFVHYTGWLLDGTKFDSSLDRKDKFSFDLGKGEVIKAWDIAIATMKVGEVCHITCKPEYAYGSAGSPPKIPPNATLVFEVELFEFKGEDLTEEEDGGIIRRIQTRGEGYAKPNEGAIVEVALEGYYKDKLFDQRELRFEIGEGENLDLPYGLERAIQRMEKGEHSIVYLKPSYAFGSVGKEKFQIPPNAELKYELHLKSFEKAKESWEMNSEEKLEQSTIVKERGTVYFKEGKYKQALLQYKKIVSWLEYESSFSNEEAQKAQALRLASHLNLAMCHLKLQAFSAAIESCNKALELDSNNEKGLFRRGEAHLAVNDFELARADFQKVLQLYPNNKAAKTQLAVCQQRIRRQLAREKKLYANMFERLAEEENKAKAEASSGDHPTDTEMKEEQKSNTAGSQSQVETEA
B4: human hnRNP M; sequence looked up; chain AAGVEAAAEVAATEIKMEEESGAPGVPSGNGAPGPKGEGERPAQNEKRKEKNIKRGGNRFEPYANPTKRYRAFITNIPFDVKWQSLKDLVKEKVGEVTYVELLMDAEGKSRGCAVVEFKMEESMKKAAEVLNKHSLSGRPLKVKEDPDGEHARRAMQKVMATTGGMGMGPGGPGMITIPPSILNNPNIPNEIIHALQAGRLGSTVFVANLDYKVGWKKLKEVFSMAGVVVRADILEDKDGKSRGIGTVTFEQSIEAVQAISMFNGQLLFDRPMHVKMDERALPKGDFFPPERPQQLPHGLGGIGMGLGPGGQPIDANHLNKGIGMGNIGPAGMGMEGIGFGINKMGGMEGPFGGGMENMGRFGSGMNMGRINEILSNALKRGEIIAKQGGGGGGGSVPGIERMGPGIDRLGGAGMERMGAGLGHGMDRVGSEIERMGLVMDRMGSVERMGSGIERMGPLGLDHMASSIERMGQTMERIGSGVERMGAGMGFGLERMAAPIDRVGQTIERMGSGVERMGPAIERMGLSMERMVPAGMGAGLERMGPVMDRMATGLERMGANNLERMGLERMGANSLERMGLERMGANSLERMGPAMGPALGAGIERMGLAMGGGGGASFDRAIEMERGNFGGSFAGSFGGAGGHAPGVARKACQIFVRNLPFDFTWKMLKDKFNECGHVLYADIKMENGKSKGCGVVKFESPEVAERACRMMNGMKLSGREIDVRIDRNA
B5: human RAB1A; sequence looked up; chain SSMNPEYDYLFKLLLIGDSGVGKSCLLLRFADDTYTESYISTIGVDFKIRTIELDGKTIKLQIWDTAGQERFRTITSSYYRGAHGIIVVYDVTDQESFNNVKQWLQEIDRYASENVNKLLVGNKCDLTTKKVVDYTTAKEFADSLGIPFLETSAKNATNVEQSFMTMAAEIKKRMGPGATAGGAEKSNVKIQSTPVKQSGGGCC
Sequence of UniProt Q64663 (whole entry, unmodified, looked up): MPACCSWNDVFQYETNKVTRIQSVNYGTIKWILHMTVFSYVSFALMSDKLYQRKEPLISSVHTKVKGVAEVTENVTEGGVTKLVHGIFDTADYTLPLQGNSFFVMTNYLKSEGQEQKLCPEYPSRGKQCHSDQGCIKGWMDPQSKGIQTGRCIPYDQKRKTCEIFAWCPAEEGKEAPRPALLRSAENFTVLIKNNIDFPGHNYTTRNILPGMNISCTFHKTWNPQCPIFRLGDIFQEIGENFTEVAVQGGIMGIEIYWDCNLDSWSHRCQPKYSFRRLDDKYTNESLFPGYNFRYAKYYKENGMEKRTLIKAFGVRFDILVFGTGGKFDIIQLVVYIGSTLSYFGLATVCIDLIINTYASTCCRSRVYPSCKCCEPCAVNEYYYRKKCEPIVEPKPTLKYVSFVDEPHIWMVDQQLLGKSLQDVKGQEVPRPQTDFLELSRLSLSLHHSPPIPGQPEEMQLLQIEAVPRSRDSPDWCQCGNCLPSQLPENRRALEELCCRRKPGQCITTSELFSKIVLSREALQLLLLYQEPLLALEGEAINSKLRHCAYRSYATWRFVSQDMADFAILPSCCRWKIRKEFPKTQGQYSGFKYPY

epoetin alfa  mRNA level (UT7/EPO; RT-qPCR, refers to: EGR3; concentration not given, 90 min, normalized to HPRT1; reference: vehicle): 22.5 fold
VVVGAAGVGK  remaining protein (HLA-A*11:01 peptide-β2M single-chain trimer; western blot, refers to: pMHC-I; peptide, 293T cells; 12 h, unit not given, with: 100 µg/mL cycloheximide; reference: time zero): 0.833 and 0.83 and 0.834
B1 (human anillin)  log2 fold change (PP6C (human); co-immunoprecipitation, IP-MS; CYB5R4 knockout cells; concentration not given; reference: CYB5R4 knockout over parental): -0.9
BzATP  normalized current (P2X purinoceptor 7 (P2rx7, Rattus norvegicus, UniProt Q64663, Q143A/R125A); ion current, agonist, two-electrode voltage clamp; Xenopus laevis oocytes; 0.41 µM; reference: highest concentration response): 0 and 0.00625 and 0.00534
FNA / CGLSGLGVA-NH2 ([18F]FNA-labelled, C-amide)  tissue uptake (ex vivo gamma counting; peptide, glioblastoma mouse model, liver; 60 min post injection, with: 500-fold excess CooP blocking): 0.6 %ID/g
Peginesatide  phosphorylation level (UT7/EPO; tyrosine phosphorylation, LC-MS/MS phosphoproteomics, GluC, refers to: EZR tyrosine 499; 10 nM, 15 min, with: 10 U/mL EPO; reference: vehicle): 16.4 fold
B2 (human ADP/ATP translocase 1)  log2 fold change (PP6C (human); co-immunoprecipitation, IP-MS; CYB5R4 knockout cells; concentration not given; reference: CYB5R4 knockout over parental): -0.12
difelikefalin  PGIC no change (Japanese haemodialysis patients with pruritus; intravenous, 0.25 µg/kg, 8 weeks): 11.5%
B3 (human FKBP4)  log2 fold change (CYB5R4 knockout human cells; PP4 interaction, 3xFLAG-PP4C IP-MS; concentration not given; reference: CYB5R4 KO over parental): 0.12
11-deoxycorticosterone  rate constant k-1 (CYP11B2 (human); substrate binding, stopped-flow global kinetic fitting; purified enzyme; 3-state induced fit model, with: 10-fold excess adrenodoxin): 31 ± 1.58 s⁻¹
SEKHFRETEV  binding intensity (construct, MBP fusion, human SCRIB, PDZ 3-4; automated holdup; peptide, purified PDZ protein; concentration not given, unit not given; reference: biotin control resin, higher = stronger binding): 0.804
caspofungin  aspartate aminotransferase (adult ICU patients, mITT, serum; dose not given, Follow-up): 20.8 U/L
milbemycin oxime  OD600 (Saccharomyces cerevisiae; cell growth; Pdr5 deleted, Cdr1 overexpressed; 2^-9.966 µg/mL): 0.936 and 1 and 0.982
Polymyxin B  membrane depolarisation (Staphylococcus aureus; DiSC3(5) fluorescence; concentration not given, 72 min; higher = more depolarisation): 459 a.u. and 528 a.u. and 604 a.u.
GSGAGPETLV  binding intensity (construct, MBP fusion, human SCRIB, PDZ 3-4; automated holdup; peptide, crude extract; concentration not given, corrected by standard peak, unit not given; reference: biotin control resin, higher = stronger binding): 0.262
B4 (human hnRNP M)  log2 fold change (PP6C (human); co-immunoprecipitation, IP-MS; CYB5R4 knockout cells; concentration not given; reference: CYB5R4 knockout over parental): -1.24
FGA (Homo sapiens, UniProt P02671)  cross-linked residues (AUTS2 (Homo sapiens, UniProt Q8WXX7); cross-linking MS; with: DSSO): K100 to K167
colistin  MIC (Pseudomonas aeruginosa; clinical isolate RKI 47/09): ≤ 0.5 µg/mL
EKPIDSETKM  binding intensity (construct, MBP fusion, human SCRIB, PDZ 3-4; automated holdup; peptide, purified PDZ protein; concentration not given, unit not given; reference: biotin control resin, higher = stronger binding): 0.0855
FGB (Homo sapiens, UniProt P02675)  cross-linked residues (CCDC126 (Homo sapiens, UniProt Q96EE4); cross-linking MS; with: DSSO): K367 to K99
B5 (human RAB1A)  log2 fold change (CYB5R4 knockout human cells; PP4 interaction, 3xFLAG-PP4C IP-MS; concentration not given; reference: CYB5R4 KO over parental): -2.36

Some of these lines once more:
FGB (Homo sapiens, UniProt P02675)  cross-linked residues (CCDC126 (Homo sapiens, UniProt Q96EE4); cross-linking MS; with: DSSO): K367 to K99
